Results pooled from the literature.
± gives the spread as reported.

The renal clearance of `C[C@@H](Oc1ccc(S(C)(=O)=O)cc1C(=O)N1C[C@@H]2C[C@]2(c2cc(C(F)(F)F)on2)C1)C(F)(F)F` is reported as 6.25 mL/min (young healthy humans, plasma and urine; oral, 10 mg, 0 to 24 h, single dose).
With `CCN1C(=O)N(c2c(F)c(OC)cc(OC)c2F)Cc2cnc3[nH]c(CN4CCOCC4)cc3c21` the renal clearance was 3.47 mL/min (human).
`Cc1cc(-c2nccc3c2ccn3CC(=O)Nc2ccc(-c3cnccn3)cn2)ccn1` has a renal clearance of 6.82 mL/min (human, plasma and urine; oral, 20 mg single dose, geometric mean).
With `COc1ccc(-n2nc(C(N)=O)c3c2C(=O)N(c2ccc(N4CCCCC4=O)cc2)CC3)cc1` the renal clearance was 24.3 ± 1.38 mL/min (population PK; human, plasma; oral).
With `Cn1cc(-c2cn3nccc3c(-c3cnn([C@]4(CC#N)C[C@@H](C#N)C4)c3)n2)cn1` the renal clearance was 10 mL/min (human, urine; 100 mg once daily, day 10, multiple dose, geometric mean).
`C[C@@H](N)c1cc(Cl)ccc1Cn1c(=S)[nH]c(=O)c2[nH]ccc21` has a renal clearance of 235 mL/min (human, both sexes, matched healthy controls, urine and plasma; oral, 2.5 mg single dose, 0-24 h urine collection, geometric mean).
`CC(C)n1c(C2CCNCC2)nc2c([N+](=O)[O-])c(Br)c(Br)cc21` has a renal clearance of 10.3 mL/min (human; oral, 100 mg single dose, median).
With `CN(C)C(=O)c1cc2cnc(Nc3ccc(N4CCNCC4)cn3)nc2n1C1CCCC1` the renal clearance was 52.2 mL/min (human, mild renal impairment, plasma and urine; oral, 400 mg, geometric mean).
With `CN[C@@H]1COc2c(S(=O)(=O)NC(=O)Nc3c4c(cc5c3CCC5)CCC4)cnn2C1` the renal clearance was 5.8 mL/min (human, urine; oral, 1800 mg, 0-48 h).
With `NC[C@@]1(CC(=O)O)[C@@H]2CC[C@H]3C[C@@H]2[C@@H]1C3` the renal clearance was 30 ± 7.5 mL/min (human, severe renal impairment, urine; oral, 20 mg single dose).
`CC(=O)N(C)[C@H]1CCN(C(=O)c2cnc3c(c2)C[C@](C)(c2ccc(F)cc2)N3)C1` has a renal clearance of 149 mL/min (healthy male human, urine; oral, 15 mg once daily, 0-48 h steady state, geometric mean).
The renal clearance of `Cl.[2H]C([2H])([2H])CC(=O)c1cnc(NC(=O)C2CC2)cc1Nc1cccc(-c2ncn(C([2H])([2H])[2H])n2)c1OC` is reported as 0.767 mL/min (human, fasted; oral, 40 mg, every 12 h multiple dose, mean).
For `COc1cc(N2CCC(N3CCN(C)CC3)CC2)ccc1Nc1ncc(Cl)c(Nc2ccccc2P(C)(C)=O)n1`, the renal clearance was 53.5 mL/min (human; oral, 180 mg).
The renal clearance of `O=C(c1nc2n(n1)[C@H](c1ccccc1)C[C@@H]2F)C1CC1` is reported as 0.096 to 0.242 mL/min (human; 150 mg single dose).
For `C[C@@H](Cn1ccc(-c2ccc(C#N)c(Cl)c2)n1)NC(=O)c1cc([C@@H](C)O)[nH]n1`, the renal clearance was 8.49 mL/min (item: darolutamide; human, fasted; oral, 300 mg darolutamide tablet, geometric mean).

Repeated from above:
The renal clearance of `C[C@@H](Oc1ccc(S(C)(=O)=O)cc1C(=O)N1C[C@@H]2C[C@]2(c2cc(C(F)(F)F)on2)C1)C(F)(F)F` is reported as 6.25 mL/min (young healthy humans, plasma and urine; oral, 10 mg, 0 to 24 h, single dose).
With `CCN1C(=O)N(c2c(F)c(OC)cc(OC)c2F)Cc2cnc3[nH]c(CN4CCOCC4)cc3c21` the renal clearance was 3.47 mL/min (human).
